Published values gathered from unrelated publications.
A part holds a random share of what one study measured. Positions count from the first letter of the parent shown.

Sample 1 — method: RNA Bind-n-Seq; molecule type: RNA; medium: in vitro; tested at: 365 nM; reference: no-protein control; direction: higher = stronger binding
Target: RNA binding protein fox-1 homolog 2, RRM domain, GST-SBP tag (RBFOX2, Homo sapiens, UniProt O43251-10, residues 100-194)
Notes: natural RNA segment, single round, ends assumed
Shared flanks, not repeated: GGGAGUUCUACAGUCCGACGAUC … UGGAAUUCUCGGGUGCCAA
Target sequence (chain): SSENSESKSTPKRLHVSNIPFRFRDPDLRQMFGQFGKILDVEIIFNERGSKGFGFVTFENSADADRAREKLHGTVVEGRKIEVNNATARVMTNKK
| Strand | RBNS enrichment (R) |
| --- | --- |
| UACCCAGCUUUCUUUUUAAUACAAAUGUUAUUUAUAGUUUACAAUGAAUGCACUGCAUAAAAACUUUGUAGCUUCAUUAUUGUAAAACAUAUUCAAGAUCCUACAGUAAG | 0.606 |
| GCACUUCCGCAUCUGCCCGUGGGCGCCCCACAGCUGCCCCUCAGCCGCUGAGAUCCAGUGUCCAAGCUGCGGCCAGGAGUCCACCCACCUCCGCAUCCACCCCCGUCCGC | 0.552 |
| UGCAACACGGACCCCACCAGAGCUCUUGGAUACCCCCCUAGAUCCAUGUGGCUUUAUGUGAGGGGACUGAAUGCAGACACACCAUAGCCCCCUUCUACUACUUUCCCUCU | 0.425 |
| CUCCUCCCCCAAGAGCACAAACAUCUUACCACCCAUCGUGUGACCCUCGUGGCAGGCGGGCAUGUCCCGCUCCCUUCCGCCACCAAUUUGUAUUAGAGAAGGCACUUUGA | 1.18 |
| AGGGAGGGCCCACCUUAGACUGCUGGGGAGAGGCCACAGGGCUGGGGGCCAGGUCCGGCCAGCUGUGCCCAUCGCCUGGGAGAAGGCCAGCUCACCAACUGAGCUCUGGA | 0.353 |
| UGUUCUUGAACAGAUACUAUGUCUAUAACUCAGAUCGCACCAAACUUCCUGUGGUGACAGACUCUUCCAUUUCAGACUGGUUUUAACUUAUCCCAGCUUUACAAAAACUC | 0.311 |
| UUGCCUGGGAGCAAACCGCCAGGACGCAGCCUCCACGCCGCACCUGCCACAUUCAGCCCUGCCCAGGAAGGAACACAUGACCCUUCUGUCUGUGACUGUUGCUGAGUCUC | 0.274 |
| UUUAUGAGUAGACAGUGUUAAUUUGAUUUUCUACAGGAAUUAUGUAACUUAUUCUUUAGGUUUAAAAAGAAUGCUCAAAGGCUAUACAGAGAAGCCCUGUAUCAAAAACC | 0.725 |

Sample 2 — method: protein binding microarray; molecule type: double-stranded DNA, one strand shown; medium: in vitro; tested at: not given; reference: not given; direction: higher = stronger binding
Target: Histone acetyltransferase KAT6A, winged helix 1, GST fusion (KAT6A, Homo sapiens, UniProt Q92794, residues 1-85)
Notes: 8-mer, flanks averaged, mean of 2 arrays, mostly near background
Residues (chain): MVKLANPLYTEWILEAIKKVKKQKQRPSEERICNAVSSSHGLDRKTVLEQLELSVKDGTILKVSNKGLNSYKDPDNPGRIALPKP
| Strand | E-score |
| --- | --- |
| ATCAGAGA | -0.24 |
| CGGGGGAG | 0.229 |
| AGATTGAA | -0.071 |
| GACGGCGA | 0.355 |
| ATGGGTCC | -0.092 |
| AAATCACG | 0.101 |
| CGGCCCCG | 0.412 |
| CATGTGGA | -0.131 |
| GTCCATTA | -0.0917 |
| GCGTTACA | 0.0786 |
| CCATCATC | -0.122 |
| CTAGGTGC | -0.00439 |
| ACTGGTGC | 0.0162 |
| CAATCTTA | 0.0135 |
| GCTGCCCA | -0.0976 |
| CAATGCAA | -0.143 |
| CGAGCTCC | 0.0116 |
| CTGGACAG | -0.148 |
| CACGGAAG | 0.219 |
| TAAGGGGA | -0.207 |
| AAACGGCG | 0.32 |
| GCAAAGCA | -0.0152 |

Sample 3 — target: CCNE2, cyclin fold, Cln2 fusion (human); method: yeast growth competition, sequencing; medium: yeast; notes: weak parent motif; reference: not given; direction: higher = stronger binding
Parent: CDC6 docking peptide (human); TLKGRRLVFDNQL; partner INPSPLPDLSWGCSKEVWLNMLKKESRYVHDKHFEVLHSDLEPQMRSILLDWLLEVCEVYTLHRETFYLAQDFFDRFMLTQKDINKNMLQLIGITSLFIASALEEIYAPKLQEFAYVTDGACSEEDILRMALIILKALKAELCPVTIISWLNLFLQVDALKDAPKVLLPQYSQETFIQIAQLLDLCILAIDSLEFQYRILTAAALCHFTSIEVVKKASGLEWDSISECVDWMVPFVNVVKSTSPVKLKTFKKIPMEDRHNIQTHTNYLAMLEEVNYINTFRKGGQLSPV
| Change | normalised enrichment score |
| --- | --- |
| TLKGRRLVFDNQF [L13F] | 0.228 |
| TLKGRRLVFDNQW [L13W] | -0.0979 |
| NLKGRRLVFDNQL [T1N] | -0.112 |
| TLKGRRLVFDQQL [N11Q] | 0.219 |
| TLKGRRLVYDNQL [F9Y] | 0.586 |
| DLKGRRLVFDNQL [T1D] | -0.269 |
| ELKGRRLVFDNQL [T1E] | 0.876 |
| TLKGRRLVFDNVL [Q12V] | 0.325 |
| TLFGRRLVFDNQL [K3F] | 0.0291 |
| TLKKRRLVFDNQL [G4K] | 1.01 |
| QLKGRRLVFDNQL [T1Q] | -0.0603 |
| TLKGRRLVFVNQL [D10V] | 0.396 |
| TLKGRRLVFDNEL [Q12E] | -0.199 |
| TLKQRRLVFDNQL [G4Q] | 1.2 |
| TLKGRRLVFDNSL [Q12S] | -0.0611 |
| TLKGRMLVFDNQL [R6M] | 0.744 |
| TQKGRRLVFDNQL [L2Q] | 0.465 |

Sample 4 — method: RNA Bind-n-Seq; molecule type: RNA; medium: in vitro; tested at: 200 nM; notes: whole 134-nt RNA, ends assumed; with: 150 mM KCl; reference: input library; direction: higher = stronger binding
Target: Ras GTPase-activating protein-binding protein 1, full length (G3BP1, Homo sapiens, UniProt Q13283)
Sequence of UniProt Q13283 (whole entry, looked up): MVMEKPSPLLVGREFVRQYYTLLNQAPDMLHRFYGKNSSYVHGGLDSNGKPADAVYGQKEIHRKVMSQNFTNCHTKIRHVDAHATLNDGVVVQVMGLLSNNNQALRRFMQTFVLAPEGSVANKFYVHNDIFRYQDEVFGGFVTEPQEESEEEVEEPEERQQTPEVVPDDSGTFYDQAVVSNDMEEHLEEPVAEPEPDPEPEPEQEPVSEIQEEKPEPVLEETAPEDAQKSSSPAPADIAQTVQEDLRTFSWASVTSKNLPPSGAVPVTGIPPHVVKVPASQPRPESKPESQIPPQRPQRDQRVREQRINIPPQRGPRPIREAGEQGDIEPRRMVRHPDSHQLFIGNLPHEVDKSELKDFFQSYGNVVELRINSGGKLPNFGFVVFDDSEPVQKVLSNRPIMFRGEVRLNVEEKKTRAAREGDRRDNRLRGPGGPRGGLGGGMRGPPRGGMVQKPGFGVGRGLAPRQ
Shared flanks, not repeated: GGGAGUUCUACAGUCCGACGAUC … UGGAAUUCUCGGGUGUCAAGG
| Strand | log2 enrichment |
| --- | --- |
| UAACUUUAGAGGAGGAUCUGAUGGAUAUGGCAGUGGGCGUGGAUUUGGGGAUGGCUAUAAUGGGUAUGGAGGAGGACCUGGAGGUGGCAA | 0.597 |
| CAACGUUGAAAUGGAUUGGGUGUUGAAGCAUACUGGUCCAAAUAGUCCUGACACGGCCAAUGAUGGCUUUGUACGGCUUAGAGGACUUCC | -2.02 |
| CAGAGACAACACGCACCCACACAGACACAGAGGGAAGGGGUUGGGAUGGGGACAGGGUGCACAGCAGGGCGGGGUAGGACCCCAGCCCCU | 1.85 |
| CAAGUCCUGUGCUACACAUCGUAUGUACCGAAUCGGGCCCGGGGCCCGGGCCCGGAAAGUAUUAUGUUACGCCGUUCGGAUCUGCACUUC | 0.113 |
| UGUGCUACACAUCGUAUGUACCGAAUCGGGGUUUUUUUGGGGAAAAAAAGGGGAAAAAGGGGAAAGUAUUAUGUUACGCCGUUCGGAUCU | -0.497 |
| UAACUUUAAAGGAGGAUCUGAUGGAUAUGGCAGUGGACGUGGAUUUGGGGAUGGCUAUAAUGGGUAUGGAGGAGGACCUGGAGGUGGCAA | 0.332 |
| CCUCAAGUCCUGUGCUACACAUCGUAUGUACCGAAUCGGGUUGGUUGGGUUGGAAAGUAUUAUGUUACGCCGUUCGGAUCUGCACUUCCA | -0.195 |
| GCAGGAAGUAAAAACAAAUGGAAAUGCUUCGGAUAGUGGCAGGGGUGGGGGUUGCUAAGGAAAGAGUGGGAUGGGAGUGGGUAAAGAGUU | 0.838 |
| CACAGACAACACGCACCCACACAGACACAGAGGGAAGGGGUUGGGAUGGGGACAGGGUGCACAGCAGGGCGGGGUAUGACCCCAGCCCCU | 1.87 |

Other studies, line by line
| Molecule | target | test | system | conditions | scale | quantity | value |
| --- | --- | --- | --- | --- | --- | --- | --- |
| PhoQ, residues 284 288 289 292 302 303 QWQEDG | PhoP, residues 12 14 15 18 19 NYFTV (Escherichia coli, UniProt P23836) | Sort-seq, item: YFP reporter | E. coli | PhoQ-PhoP variant library, with: 10 µM Mg2+ | reference: high Mg2+ state, higher = stronger signaling | fold induction | 0.646 |

A few entries again (sample 1):
| Strand | RBNS enrichment (R) |
| --- | --- |
| AGGGAGGGCCCACCUUAGACUGCUGGGGAGAGGCCACAGGGCUGGGGGCCAGGUCCGGCCAGCUGUGCCCAUCGCCUGGGAGAAGGCCAGCUCACCAACUGAGCUCUGGA | 0.353 |
| UGUUCUUGAACAGAUACUAUGUCUAUAACUCAGAUCGCACCAAACUUCCUGUGGUGACAGACUCUUCCAUUUCAGACUGGUUUUAACUUAUCCCAGCUUUACAAAAACUC | 0.311 |
| UUGCCUGGGAGCAAACCGCCAGGACGCAGCCUCCACGCCGCACCUGCCACAUUCAGCCCUGCCCAGGAAGGAACACAUGACCCUUCUGUCUGUGACUGUUGCUGAGUCUC | 0.274 |
